Assay results pooled from the literature.
Numbered parts are unrelated; each lists some results of a single study.
Sequence of UniProt P32298 (whole entry, looked up): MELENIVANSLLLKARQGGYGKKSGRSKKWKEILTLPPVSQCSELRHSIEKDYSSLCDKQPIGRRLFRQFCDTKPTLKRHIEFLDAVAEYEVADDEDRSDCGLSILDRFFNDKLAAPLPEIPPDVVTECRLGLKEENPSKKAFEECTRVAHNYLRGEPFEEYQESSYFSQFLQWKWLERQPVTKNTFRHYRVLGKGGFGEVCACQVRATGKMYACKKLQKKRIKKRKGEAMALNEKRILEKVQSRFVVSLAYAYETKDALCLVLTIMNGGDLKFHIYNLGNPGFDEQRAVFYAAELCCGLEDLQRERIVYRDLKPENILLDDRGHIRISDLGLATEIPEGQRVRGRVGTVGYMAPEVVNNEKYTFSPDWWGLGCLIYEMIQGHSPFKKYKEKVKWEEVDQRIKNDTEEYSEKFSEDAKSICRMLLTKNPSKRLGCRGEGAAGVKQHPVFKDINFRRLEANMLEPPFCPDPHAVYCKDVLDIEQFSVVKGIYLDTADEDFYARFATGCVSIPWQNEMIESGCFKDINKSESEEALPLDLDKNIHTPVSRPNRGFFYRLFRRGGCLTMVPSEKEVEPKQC
Sequence of UniProt O14733 (whole entry, looked up): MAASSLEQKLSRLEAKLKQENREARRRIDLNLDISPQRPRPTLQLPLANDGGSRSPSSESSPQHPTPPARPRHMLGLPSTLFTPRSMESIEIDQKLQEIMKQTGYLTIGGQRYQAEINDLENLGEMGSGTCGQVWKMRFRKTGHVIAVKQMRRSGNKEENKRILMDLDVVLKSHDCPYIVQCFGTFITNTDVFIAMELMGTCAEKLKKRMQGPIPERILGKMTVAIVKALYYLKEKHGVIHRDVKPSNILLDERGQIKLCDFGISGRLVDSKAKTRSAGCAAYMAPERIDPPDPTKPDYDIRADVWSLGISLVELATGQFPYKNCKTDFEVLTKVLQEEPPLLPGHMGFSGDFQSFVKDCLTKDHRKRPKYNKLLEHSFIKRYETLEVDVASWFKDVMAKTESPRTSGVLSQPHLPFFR
Sequence of UniProt Q52WX2 (whole entry, looked up): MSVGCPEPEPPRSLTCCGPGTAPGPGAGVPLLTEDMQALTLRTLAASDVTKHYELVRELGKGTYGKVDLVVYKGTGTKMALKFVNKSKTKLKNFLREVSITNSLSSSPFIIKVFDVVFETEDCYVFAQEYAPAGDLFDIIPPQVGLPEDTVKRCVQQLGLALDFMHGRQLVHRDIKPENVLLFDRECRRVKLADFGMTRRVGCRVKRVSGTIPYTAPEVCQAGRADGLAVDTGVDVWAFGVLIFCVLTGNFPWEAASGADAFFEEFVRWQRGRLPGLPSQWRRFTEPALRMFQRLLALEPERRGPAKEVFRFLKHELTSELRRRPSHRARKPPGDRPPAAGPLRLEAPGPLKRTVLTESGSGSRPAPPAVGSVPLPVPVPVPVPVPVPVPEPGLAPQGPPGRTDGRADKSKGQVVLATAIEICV
Sequence of UniProt Q9Y5S2 (whole entry, looked up): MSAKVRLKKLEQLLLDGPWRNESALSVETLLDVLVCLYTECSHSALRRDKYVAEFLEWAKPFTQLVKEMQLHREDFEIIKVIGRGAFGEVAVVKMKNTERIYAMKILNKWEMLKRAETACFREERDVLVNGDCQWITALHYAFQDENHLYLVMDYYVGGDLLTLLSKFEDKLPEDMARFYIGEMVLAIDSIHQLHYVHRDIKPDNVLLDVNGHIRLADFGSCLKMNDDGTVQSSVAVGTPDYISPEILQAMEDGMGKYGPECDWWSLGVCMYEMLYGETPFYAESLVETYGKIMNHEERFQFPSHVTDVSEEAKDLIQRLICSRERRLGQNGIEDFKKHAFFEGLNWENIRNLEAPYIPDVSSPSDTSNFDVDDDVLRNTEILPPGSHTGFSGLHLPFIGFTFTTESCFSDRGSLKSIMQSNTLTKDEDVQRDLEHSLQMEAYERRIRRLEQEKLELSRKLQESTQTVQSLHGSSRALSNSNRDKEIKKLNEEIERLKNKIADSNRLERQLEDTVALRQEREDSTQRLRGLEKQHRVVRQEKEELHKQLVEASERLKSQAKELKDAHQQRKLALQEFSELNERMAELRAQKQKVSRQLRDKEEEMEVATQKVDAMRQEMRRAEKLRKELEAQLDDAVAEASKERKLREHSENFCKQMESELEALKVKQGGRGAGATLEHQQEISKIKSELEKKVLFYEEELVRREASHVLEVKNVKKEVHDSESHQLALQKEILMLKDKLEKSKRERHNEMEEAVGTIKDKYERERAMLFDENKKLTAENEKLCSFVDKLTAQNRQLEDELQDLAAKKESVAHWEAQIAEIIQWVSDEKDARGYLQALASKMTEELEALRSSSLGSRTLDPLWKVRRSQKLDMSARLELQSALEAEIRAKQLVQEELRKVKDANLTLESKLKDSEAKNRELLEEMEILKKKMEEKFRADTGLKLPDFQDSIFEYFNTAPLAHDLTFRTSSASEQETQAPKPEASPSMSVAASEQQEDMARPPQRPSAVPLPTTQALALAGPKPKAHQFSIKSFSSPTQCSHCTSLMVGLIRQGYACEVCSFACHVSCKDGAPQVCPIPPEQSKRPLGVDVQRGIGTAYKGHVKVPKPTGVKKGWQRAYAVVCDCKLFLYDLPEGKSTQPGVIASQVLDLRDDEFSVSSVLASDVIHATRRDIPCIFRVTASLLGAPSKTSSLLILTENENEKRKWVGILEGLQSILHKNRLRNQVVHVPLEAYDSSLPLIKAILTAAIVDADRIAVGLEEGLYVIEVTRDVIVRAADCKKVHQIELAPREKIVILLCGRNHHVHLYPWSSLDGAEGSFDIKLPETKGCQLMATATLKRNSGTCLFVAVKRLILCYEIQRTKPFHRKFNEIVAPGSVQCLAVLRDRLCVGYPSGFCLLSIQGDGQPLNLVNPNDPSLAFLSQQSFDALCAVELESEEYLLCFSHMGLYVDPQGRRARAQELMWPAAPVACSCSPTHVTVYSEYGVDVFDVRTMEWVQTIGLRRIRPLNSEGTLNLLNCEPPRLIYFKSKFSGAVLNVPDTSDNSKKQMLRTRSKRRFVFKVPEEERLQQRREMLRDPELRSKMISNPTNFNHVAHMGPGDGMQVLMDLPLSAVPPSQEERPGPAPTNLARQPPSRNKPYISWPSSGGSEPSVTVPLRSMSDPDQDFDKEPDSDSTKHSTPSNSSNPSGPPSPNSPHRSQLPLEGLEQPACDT
Sequence of UniProt Q9BVS4 (whole entry, looked up): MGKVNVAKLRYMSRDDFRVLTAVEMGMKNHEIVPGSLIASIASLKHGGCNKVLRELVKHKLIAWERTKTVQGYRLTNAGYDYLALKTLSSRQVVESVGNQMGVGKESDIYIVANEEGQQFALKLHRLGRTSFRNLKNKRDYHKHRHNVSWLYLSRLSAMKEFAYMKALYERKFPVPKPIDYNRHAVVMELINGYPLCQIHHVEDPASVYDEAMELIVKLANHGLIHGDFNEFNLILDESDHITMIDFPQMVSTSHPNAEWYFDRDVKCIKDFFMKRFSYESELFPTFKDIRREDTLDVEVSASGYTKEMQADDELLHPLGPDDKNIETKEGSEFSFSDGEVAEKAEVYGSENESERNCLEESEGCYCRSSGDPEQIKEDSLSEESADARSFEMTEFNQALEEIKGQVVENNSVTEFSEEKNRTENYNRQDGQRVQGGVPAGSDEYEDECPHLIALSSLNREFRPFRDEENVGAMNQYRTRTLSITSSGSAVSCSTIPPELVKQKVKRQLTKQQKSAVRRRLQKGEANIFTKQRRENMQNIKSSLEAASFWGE
Sequence of UniProt Q9NRM7 (whole entry, looked up): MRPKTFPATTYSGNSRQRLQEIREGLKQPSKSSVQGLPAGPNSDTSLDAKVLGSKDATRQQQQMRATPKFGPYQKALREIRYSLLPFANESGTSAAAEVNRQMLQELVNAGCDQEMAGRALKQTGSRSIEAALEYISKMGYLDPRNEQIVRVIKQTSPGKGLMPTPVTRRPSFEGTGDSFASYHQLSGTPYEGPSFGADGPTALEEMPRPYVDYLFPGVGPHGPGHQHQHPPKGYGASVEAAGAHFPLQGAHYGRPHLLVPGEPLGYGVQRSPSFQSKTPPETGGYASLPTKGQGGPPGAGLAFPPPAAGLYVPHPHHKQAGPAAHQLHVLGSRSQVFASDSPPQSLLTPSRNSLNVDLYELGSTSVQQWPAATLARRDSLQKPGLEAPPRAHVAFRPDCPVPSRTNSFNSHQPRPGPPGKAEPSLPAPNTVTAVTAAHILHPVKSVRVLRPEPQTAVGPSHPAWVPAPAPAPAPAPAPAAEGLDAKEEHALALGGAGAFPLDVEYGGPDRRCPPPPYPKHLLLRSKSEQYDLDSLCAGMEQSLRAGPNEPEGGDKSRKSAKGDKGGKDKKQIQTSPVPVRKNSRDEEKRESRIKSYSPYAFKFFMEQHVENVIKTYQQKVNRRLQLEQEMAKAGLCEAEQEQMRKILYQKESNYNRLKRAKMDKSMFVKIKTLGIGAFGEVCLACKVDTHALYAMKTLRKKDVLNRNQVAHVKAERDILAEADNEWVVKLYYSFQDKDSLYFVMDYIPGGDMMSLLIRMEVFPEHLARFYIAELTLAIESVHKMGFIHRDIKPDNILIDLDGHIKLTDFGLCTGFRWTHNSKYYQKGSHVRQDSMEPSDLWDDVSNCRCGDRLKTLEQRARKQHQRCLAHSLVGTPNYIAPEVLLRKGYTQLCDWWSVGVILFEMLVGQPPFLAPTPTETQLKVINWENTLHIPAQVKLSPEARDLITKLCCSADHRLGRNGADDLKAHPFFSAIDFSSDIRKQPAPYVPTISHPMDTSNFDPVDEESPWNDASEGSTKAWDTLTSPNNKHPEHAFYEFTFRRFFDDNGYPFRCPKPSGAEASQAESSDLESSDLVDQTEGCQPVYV
Sequence of UniProt P06493 (whole entry, looked up): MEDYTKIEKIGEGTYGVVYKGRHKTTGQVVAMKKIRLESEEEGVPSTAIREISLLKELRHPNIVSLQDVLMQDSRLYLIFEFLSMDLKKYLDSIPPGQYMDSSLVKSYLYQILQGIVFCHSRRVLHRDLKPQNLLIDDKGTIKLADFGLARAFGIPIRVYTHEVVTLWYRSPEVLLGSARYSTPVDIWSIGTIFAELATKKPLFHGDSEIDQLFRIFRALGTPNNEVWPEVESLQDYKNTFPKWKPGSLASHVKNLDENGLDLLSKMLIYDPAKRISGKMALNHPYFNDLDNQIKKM

Block 1
SMILES: CCc1ccccc1C(=O)Nc1n[nH]c2c(C)c(F)c(C3C(C#N)=C(C)N(C)C(C)=C3C#N)cc12
Read-out: cell-free assay
Method: competition with immobilised ligand
Concentration: 1 µM
target | remaining binding [%]
SNF-related serine/threonine-protein kinase (SNRK, Homo sapiens, UniProt Q9NRH2) | 100
Serine/threonine-protein kinase Nek10 (NEK10, Homo sapiens, UniProt Q6ZWH5) | 100
Receptor tyrosine-protein kinase erbB-3 (ERBB3, Homo sapiens, UniProt P21860) | 91
Non-receptor tyrosine-protein kinase TNK1 (TNK1, Homo sapiens, UniProt Q13470) | 100
Dual specificity mitogen-activated protein kinase kinase 7 (MAP2K7, Homo sapiens, UniProt O14733) | 100
Serine/threonine-protein kinase LATS2 (LATS2, Homo sapiens, UniProt Q9NRM7) | 67

Block 2
Organism: Sarcocystis neurona
Read-out: parasite growth
Concentration: 10 µM
Time: 96 h
Notes: first screen
Baseline: untreated
Structure (SMILES) | log2 fold change
CN1CCC(=C2c3ccccc3CC(=O)c3sccc32)CC1 | -0.24
CC(C)(C(=O)c1cccnc1)c1cccnc1 | 0.26
CC(C)Oc1ccc2c(=O)c(-c3ccccc3)coc2c1 | 2.39
CC(C)(C)NCC(O)COc1cccc2c1CC(O)C(O)C2 (stereo not drawn) | 0.36
Nc1nnc(-c2cccc(Cl)c2Cl)c(N)n1 | 0.19
CCC(C)n1ncn(-c2ccc(N3CCN(c4ccc(OCC5COC(Cn6cncn6)(c6ccc(Cl)cc6Cl)O5)cc4)CC3)cc2)c1=O (stereo not drawn) | 0.17
Cc1ccc(S(=O)(=O)NC(=O)NN2CCCCCC2)cc1 | 0.3
NNC(=O)c1ccncc1 | 0.34
CN(C)CCCSc1ccccc1NC(=O)/C=C/c1ccccc1 | -0.42

Block 3
SMILES: O=C(Nc1ccccc1)Nc1cccc(Oc2ccc3nccn3n2)c1
Method: competitive binding panel
Concentration: 1 µM
Baseline: vehicle
target | item | remaining binding [%]
Muscle, skeletal receptor tyrosine-protein kinase (MUSK, Homo sapiens, UniProt O15146) |  | 100
Mitogen-activated protein kinase kinase kinase 4 (MAP3K4, Homo sapiens, UniProt Q9Y6R4) |  | 96
Mitogen-activated protein kinase kinase kinase 10 (MAP3K10, Homo sapiens, UniProt Q02779) | MLK2 | 91
G protein-coupled receptor kinase 4 (GRK4, Homo sapiens, UniProt P32298) |  | 77
Serine/threonine-protein kinase RIO2 (RIOK2, Homo sapiens, UniProt Q9BVS4) |  | 100
Phosphorylase b kinase gamma catalytic chain, liver/testis isoform (PHKG2, Homo sapiens, UniProt P15735) |  | 91
Serine/threonine-protein kinase tousled-like 1 (TLK1, Homo sapiens, UniProt Q9UKI8) |  | 83
Tyrosine-protein kinase Srms (SRMS, Homo sapiens, UniProt Q9H3Y6) |  | 100
Serine/threonine-protein kinase SBK1 (SBK1, Homo sapiens, UniProt Q52WX2) |  | 100
Serine/threonine-protein kinase PRP4 homolog (PRPF4B, Homo sapiens, UniProt Q13523) | PRP4 | 74

Block 4
Compound: Cc1ccc(NC2=CC(=O)c3sc(C)nc3C2=O)cc1
Read-out: enzyme activity
Mode: inhibitor
Concentration: 0.5 µM
Baseline: control
target | remaining activity [%]
Vascular endothelial growth factor receptor 2 (KDR, Homo sapiens, UniProt P35968) | 101
Serine/threonine-protein kinase Nek3 (NEK3, Homo sapiens, UniProt P51956) | 88.2
Serine/threonine-protein kinase MRCK beta (CDC42BPB, Homo sapiens, UniProt Q9Y5S2) | 109
Dual specificity protein kinase CLK3 (CLK3, Homo sapiens, UniProt P49761) | 98.6
Mitogen-activated protein kinase 14 (MAPK14, Homo sapiens, UniProt Q16539) | 92.4
RAC-beta serine/threonine-protein kinase (AKT2, Homo sapiens, UniProt P31751) | 91.3
Mitogen-activated protein kinase 11 (MAPK11, Homo sapiens, UniProt Q15759) | 102
Discoidin domain-containing receptor 2 (DDR2, Homo sapiens, UniProt Q16832) | 95.6
Tyrosine-protein kinase TXK (TXK, Homo sapiens, UniProt P42681) | 98.8
G protein-coupled receptor kinase 4 (GRK4, Homo sapiens, UniProt P32298) | 93.1
cGMP-dependent protein kinase 2 (PRKG2, Homo sapiens, UniProt Q13237) | 60.8
Cyclin-dependent kinase 9, with cyclin K (CDK9, Homo sapiens, UniProt P50750) | 84.4
Cyclin-dependent kinase 1, with cyclin A (CDK1, Homo sapiens, UniProt P06493) | 75.9
Calcium/calmodulin-dependent protein kinase type 1B (PNCK, Homo sapiens, UniProt Q6P2M8) | 95.3

Excerpt of the above (block 1):
target | remaining binding [%]
Serine/threonine-protein kinase Nek10 (NEK10, Homo sapiens, UniProt Q6ZWH5) | 100
SNF-related serine/threonine-protein kinase (SNRK, Homo sapiens, UniProt Q9NRH2) | 100
Receptor tyrosine-protein kinase erbB-3 (ERBB3, Homo sapiens, UniProt P21860) | 91
Non-receptor tyrosine-protein kinase TNK1 (TNK1, Homo sapiens, UniProt Q13470) | 100
